# Measurements collected from several papers.
# A part holds a random share of what one study measured.

# Block 1
# Target: RING finger protein unkempt homolog, zinc fingers 1-6, GST-SBP tag (UNK, Homo sapiens, UniProt Q9C0B0, residues 30-357)
# Method: RNA Bind-n-Seq
# Molecule type: RNA
# Matrix: in vitro
# Concentration: not given
# Notes: RNA with constant flanks, human and mouse sites, ends assumed
# Baseline: input RNA pool
# Direction: higher = stronger binding
# Constant ends, left off below: GGGAGUUCUACAGUCCGACGAUC … CAACAGAGGAUUGAGCAUCA
# Construct (chain): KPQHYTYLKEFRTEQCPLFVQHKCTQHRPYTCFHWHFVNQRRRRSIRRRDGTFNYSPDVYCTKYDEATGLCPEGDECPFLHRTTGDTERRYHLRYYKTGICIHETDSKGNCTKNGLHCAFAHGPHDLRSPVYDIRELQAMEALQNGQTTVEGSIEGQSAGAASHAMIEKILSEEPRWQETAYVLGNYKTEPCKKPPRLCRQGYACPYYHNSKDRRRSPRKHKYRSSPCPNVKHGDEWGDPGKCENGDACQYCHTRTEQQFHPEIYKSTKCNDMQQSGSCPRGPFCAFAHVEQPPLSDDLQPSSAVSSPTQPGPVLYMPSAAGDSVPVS
Oligonucleotide,bound/input enrichment [ratio]
ACCUAUCGUCGUUAUAGUGACUUCCAUGACUUCCACAUGAGAAUCACUGAACAGUUUGAAAGUCUCUCAAGCAUAUUGAAACUUCCUGGAAAAAAGACUUUUAAUAAUAUGGAUAGAGAU,0.278
UUUCCUUCUUUUGGAAGUGGAUUUCCUGCUUUUGAUACAGGCUUCACUCCAUUUGGGUCACUAGGUCAUGGGGGUCUCACUUCAUUUUCUUCAACGUCAUUUGGCGGCAGUGGAAUGGGC,0.166
UCCACACAGAAGCACAAUUUUGUCCUCUUCCAGACACUGUUGCCUCUACCUAGUUAGACAAAUAGGAUUUGACCUACAUUCUGUUGCCCCUAGGUUUGUGUUAGUGUCAGAAAUACUUAA,0.513
AAUUUUUUUACUAUAAAAAUACAGGAAGGAAGUAUACAUUAUAACAGCAGACUGUGUGUGUUCCUGAUUCCUGGAGGUAAUAGUGGGGGGAAACCAACCAUACUUUUUAAAGGCACUUUU,0.636
UCGUUUGGACGUGUCAGAGAGUCGUUGCCCGUCAGGUACCACCUGCAGAAUAAGACCGACUUGGUUCAAGAUGUGGAGAUUUCUGUGGAGCCCAGUGACGCCUUCAUGUUCUCAGGCCUC,0.0492
AUUUGUUUAAAUUUUUUUCAUUCUUUAAUUUUGUUAUCAGUGCCAGCCCAAUAUACCUGCUCUACCAUUAUUUGCGGUCUGAUAAAAGGGUCCUUGUGGGGCAGGUUUUGCAAAGCUUAU,9.39
GAACACUUGCUACAGGGUCUGCUUCCUGAUGUGCAAGUACCAACAUCUGUAAAAGAUAUGCGCUAUUGCCAGGUUUCAUUCCAAGAUGAUCAUGUGUCUUUGGAAAGUGCGUUUACAGUA,0.167
CACGCAUCCAUCCAGAUGAACGUGGCCGAGGUUGACAAGGUCACAGGCAGGUUUAAUGGCCAGUUUAAAACUUAUGCUAUCUGCGGGGCCAUUCGUAGGAUGGGUGAGUCAGAUGAUUCC,0.0879
CUAAUGAAGCCAUCUUCAGGGUUUCUGAGAUUACUGCUAUUCAUAAUUGAUGAUGCUAAUUAUUGAUAUGUUGAGAAAGCCAAAGCUUAAGUAGCCUGCUCAGCUUAACUUCUUGCCAUU,0.176
AUACAUGAUCUAGCAAGCCAAGCUGCCACCAUUUGCAGUCCAGAUUUUUUACUAGAUGCUUUAGAACUAUGUAAACAUACUUUAAUGGCUGUAGAGCUUUCCAGACAAUGCCAAAUGGAU,1.51
GAUGUCAGGACUAUCUUGCUCUCUAUCCAGAGCCUGCUAGGAGAACCCAACAUCGAUAGCCCUUUGAACACACACGCUGCGGAACUCUGGAAAAACCCCACAGCAUUUAAGAAAUACCUG,0.307

# Block 2
# Target: Histone acetyltransferase KAT6A, winged helix 2, GST fusion (KAT6A, Homo sapiens, UniProt Q92794, residues 85-181)
# Method: protein binding microarray
# Molecule type: double-stranded DNA, one strand shown
# Matrix: in vitro
# Concentration: not given
# Notes: 8-mer, flanks averaged, mean of 2 arrays, mostly near background
# Baseline: not given
# Direction: higher = stronger binding
# Target sequence (chain): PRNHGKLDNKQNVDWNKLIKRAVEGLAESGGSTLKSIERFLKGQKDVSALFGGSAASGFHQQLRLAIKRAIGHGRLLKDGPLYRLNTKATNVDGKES
Oligonucleotide,E-score
CCGGGCCA,0.121
AGCTTGGG,0.14
GAAACCAC,-0.0336
AAACGAGG,0.0647
GACGTTGA,-0.121
GGGCCTGA,-0.00626
GCCTCTAA,-0.108
GGTAGCTA,-0.153
AACCGTCT,-0.0401
CGTACGGC,-0.0704
CATGAGAG,-0.0484
ACGCGTCC,0.0246
ATGACGAG,0.0708
CCTCTAGC,-0.083
CTGGGTTA,-0.0929
CCATAACC,-0.212
CATAGAGG,0.0292
ACATACCT,-0.132
ACTCGAAG,-0.0293
AGCACGGG,0.0563
CGCGCTTA,-0.00911
GAATCGGA,0.0648
ATATCGTG,0.0362
CGGATGTA,-0.0749

# Block 3
# Target: Ras GTPase-activating protein-binding protein 1, full length (G3BP1, Homo sapiens, UniProt Q13283)
# Sequence of UniProt Q13283 (whole entry, looked up): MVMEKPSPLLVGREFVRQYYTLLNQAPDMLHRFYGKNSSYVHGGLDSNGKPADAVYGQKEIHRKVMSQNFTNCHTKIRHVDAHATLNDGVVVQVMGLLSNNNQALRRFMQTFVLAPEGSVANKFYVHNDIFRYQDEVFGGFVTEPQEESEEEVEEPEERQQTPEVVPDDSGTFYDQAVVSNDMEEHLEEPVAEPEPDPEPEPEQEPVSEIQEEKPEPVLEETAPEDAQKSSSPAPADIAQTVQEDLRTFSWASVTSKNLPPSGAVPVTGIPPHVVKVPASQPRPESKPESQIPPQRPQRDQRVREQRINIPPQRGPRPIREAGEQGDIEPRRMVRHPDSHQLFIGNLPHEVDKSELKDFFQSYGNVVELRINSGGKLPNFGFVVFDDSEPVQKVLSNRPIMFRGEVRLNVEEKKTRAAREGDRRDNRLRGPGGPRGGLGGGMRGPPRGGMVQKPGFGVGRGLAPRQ
# Method: RNA Bind-n-Seq
# Molecule type: RNA
# Matrix: in vitro
# Concentration: 200 nM
# Notes: whole 134-nt RNA, ends assumed
# Added: 150 mM LiCl
# Baseline: input library
# Direction: higher = stronger binding
# All molecules: 7-deaza-guanosine replaces G
# Constant ends, left off below: GGGAGUUCUACAGUCCGACGAUC … UGGAAUUCUCGGGUGUCAAGG
Oligonucleotide,log2 enrichment
AGUCCUGUGCUACACAUCGUAUGUACCGAAUCGGUUUUUGGGGUUUUUGGUUUUUGGAAAGUAUUAUGUUACGCCGUUCGGAUCUGCACU,-1.02
UCCUGUGCUACACAUCGUAUGUACCGAAUCGGGUUUUUUUGGGAAAGGGAAAAAAAGGGAAAGUAUUAUGUUACGCCGUUCGGAUCUGCA,-0.45
UAACUUUAGAGGAGGAUCUGAUGGAUAUGGCAGUGGACGUGGAUUUGGGGUUGGCUAUAAUGGGUAUGGAGGAGGACCUGGAGGUGGCAA,-0.331
GCAGGAAGUAAAAACAAAUGGAAAUGCUUCGGAUAGUGGCAGGGGUGGGGGUUGCUAAGGAAAGGGAAAGAUGGGAGUGGGUAAAGAGUU,0.273
UGCUCUCCGUGCCACAUGCGCCCGCAGGUUACGCCAAGGAGGCCCUGAAUCUGGCGCAGAUGCAGGAGCAGACGCUGCAGUUGGAGCAAC,-2.86
UAACUUUAGAGGAGGAUCUGAUGGAUAUGGCAGUGGGCGUGGAUUUGGGGAUGGCUAUAAUGGGUAUGGAGGAGGACCUGGAGGUGGCAA,0.0324
ACCAUGCAGGUGGGCAUCUUUGGGAAGUGGGGCAAGGCGGGGAUAGGGAGGGGGGUAACACUUUGGGAACAGGUGGUCCCAGGUCGUUUC,0.374
CUCAAGUCCUGUGCUACACAUCGUAUGUACCGAAUCGGAAAAAGGUGGAAAGGAAAGUAUUAUGUUACGCCGUUCGGAUCUGCACUUCCA,0.093
UAACUUUAGAAGAGGAUCUGAUGGAUAUGGCAGUGGACGUGGAUUUGGGGAUGGCUAUAAUGGGUAUGGAGGAGGACCUGGAGGUGGCAA,-0.137
CCUCAAGUCCUGUGCUACACAUCGUAUGUACCGAAUCGGGGUUGGUUGGUUGGAAAGUAUUAUGUUACGCCGUUCGGAUCUGCACUUCCA,-0.353
ACCAUGCAGGUGGGCAUCUUUGGGAAGUGGGGCAAGGGGGGGACAGGGAGGGGGGUAACACUUUGGGAACAGGUGGUCCCAGGUCGUUUC,-0.0524

# Block 4
# Target: Sal-like protein 4, full length isoform B (SALL4, Homo sapiens, UniProt Q9UJQ4-2, residues 1-616)
# Method: universal PBM
# Molecule type: double-stranded DNA, one strand shown
# Matrix: in vitro
# Concentration: not given
# Notes: 8-mer, flanks averaged, mean of replicates
# Direction: higher = stronger binding
# Construct (chain): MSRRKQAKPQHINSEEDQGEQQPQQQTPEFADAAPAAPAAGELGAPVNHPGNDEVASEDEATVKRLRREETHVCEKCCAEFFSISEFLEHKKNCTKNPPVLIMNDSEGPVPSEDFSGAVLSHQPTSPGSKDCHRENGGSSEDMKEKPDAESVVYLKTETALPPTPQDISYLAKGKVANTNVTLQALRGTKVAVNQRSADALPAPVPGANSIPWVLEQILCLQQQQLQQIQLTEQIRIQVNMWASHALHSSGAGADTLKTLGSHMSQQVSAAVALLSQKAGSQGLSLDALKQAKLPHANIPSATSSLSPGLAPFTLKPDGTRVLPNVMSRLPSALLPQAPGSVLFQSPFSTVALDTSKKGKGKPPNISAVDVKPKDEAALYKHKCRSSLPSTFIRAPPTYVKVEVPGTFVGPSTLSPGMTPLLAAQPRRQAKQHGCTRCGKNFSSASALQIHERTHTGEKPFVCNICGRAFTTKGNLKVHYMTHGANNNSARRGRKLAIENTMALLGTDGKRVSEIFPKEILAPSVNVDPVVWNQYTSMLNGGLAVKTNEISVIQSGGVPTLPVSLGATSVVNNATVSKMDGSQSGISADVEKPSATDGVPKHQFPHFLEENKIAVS
Oligonucleotide,E-score
GGCTGTAA,-0.0371
ATTGCCTA,0.0958
GATGCGTA,0.0328
CATCACCG,-0.107
CGGAGCGA,-0.172
CTCAATAC,0.175
CAGAGAGC,-0.237
AGCTAAGG,-0.228
CGGAGTTC,-0.168
GCAGTTTA,0.0757
ATCGCCAA,-0.0686
ATACCAGG,-0.0203
CATGAGCG,-0.186
ACATTGGT,0.0238
AACCACAG,-0.025
AATAACGT,0.3
GATCCGCA,-0.311
TAAAGAGA,0.13
ACTTGTAG,0.218
CTGCCCAG,-0.332
CACCCCTC,-0.278
ATGATCGC,0.0703
GTCACTAA,0.108
AAGGTGCT,-0.1

# Block 5
# Target: RNA binding protein fox-1 homolog 2, RRM domain, GST-SBP tag (RBFOX2, Homo sapiens, UniProt O43251-10, residues 100-194)
# Method: RNA Bind-n-Seq
# Molecule type: RNA
# Matrix: in vitro
# Concentration: 365 nM
# Notes: natural RNA segment, single round, ends assumed
# Baseline: no-protein control
# Direction: higher = stronger binding
# Constant ends, left off below: GGGAGUUCUACAGUCCGACGAUC … UGGAAUUCUCGGGUGCCAA
# Construct (chain): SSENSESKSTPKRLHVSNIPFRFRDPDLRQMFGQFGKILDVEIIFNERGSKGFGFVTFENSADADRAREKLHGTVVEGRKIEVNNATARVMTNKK
Oligonucleotide,RBNS enrichment (R)
CUCCCUGGCAUGACCAUCCUGUCCUUUGUUAUUAUCCUGCAUUUUACGUCUUUGGAGGAACAGCUCCCUAGUGGCUUCCUCCGUCUGCAAUGUCCCUUGCACAGCCCACA,2.12
CAACCUUUUAGCUGUUGCAAAUCAGAAGGAGCCAGAGAAGCAGGCAGUCUCAUGCAUGAGAGGUUACCCUUCAGGAUGACAGAGCUGAGGGUCUUUGUAGGAGUUGCUCU,12.1
ACUGCUCUCCUCAGGGACUGGGACAAGGUGCUGCCGCCUGCCCACAGUUUUCCCAAGGAACACGUACAAGAUCAUUUAGCCACUACUCUGCUGCCUCUCAGCCUCUGCUG,0.524
GCCAGGCUCGAAGAAAAUGAUCUGAAUUUCUUCCUCUUUUUGGUUUUAUUUUGUUGGUUUACUUUGUGUUUUCUCCUUUUUGGGGGGUAUUCAGAGUGGGCCGGGCCCCU,0.967
UGACAUAAACCAUUCAUUGCUACCUUGCUUAUUGUGUUUUUACGCGGUUUUAUACUUUUUUUAUGAGUUAUGAUAGCAGCAAUUACGUUGUUUGUAUUUUGCUUAACUAA,0.409
AGCCCCAAGAGCAUCCAAUAAAAGCUGUGCCAUUAUUGAACUUGUCAAGACAUGGUCGAUCUUCCUCAAGCUAGAAGCAUGGAGUCCUGUAUACAGUGCAGAGCCUUCUC,0.42
UGCCGCCUGUGUGCUUUGCCCGUGUGCUCCUGCUGUCCCUCUGCCUGGGAUGGCCGCCCUGCUCUGAGACUUGGCCACUCUUGUCCUGGCCAAGUGUUCUGCUUGCAUUU,0.662
UUCUAGAGGCUCUGGGAGCAAAUUACAUUCAUCACAUUACCUCUGCUCUCUCAAGAUUAAAGUCUUUCAGCAACAUUCUUUAUUGUCAUCAUAAGGAAAAACUUUUAUCG,0.456
GCUGGGUGUGUGUUUAGAGCUCUACGAAUUGUCAAUAACACAUGCUUCUCUGUCCCAGGGGUCCUAGAGAGGGCAAAUUACUAAGCAUCUCUGUAGGAUGGAGAUGAUAG,0.848
UUUAGAAAAGUCAAUUUAAUAAAUUAUCGCCUUUAGCAUUGUAACAGUUUUCAAAAAUAAAGAAAAGUAGGUCCUAAUGAUGUAUUGCUUCCCCGAAAUGGUAUCACACA,0.805
CAACAGGGCUCACUCUGAGCUCCACAUCCGCCUCCUUCAAGCAAAGACUUAAAAAGACUGCCCUUGACUCCUUGACACUAUAUCAAGUGCUGUGUAAGAGAGACUGGUCC,0.355
AUGUGUUAUGAAUCGGUGCUGUCAGCCCUGCUGUCAGACCUUCUUCCACAGCAAAUGAGAUGUAUGCCCAAAGACGGUAGAAUUAAAGAAGAGUAAAAUGGCUGUUGAAG,1.58

# Repeated from above (block 4):
Oligonucleotide,E-score
CTGCCCAG,-0.332
GATGCGTA,0.0328
AGCTAAGG,-0.228
GGCTGTAA,-0.0371
ACTTGTAG,0.218
AAGGTGCT,-0.1
CAGAGAGC,-0.237
AATAACGT,0.3
TAAAGAGA,0.13
GATCCGCA,-0.311
